Experimental data collected from several papers.
Each line is one published result; not all experiments were run side by side. ± marks the error that the study gave.

| SMILES | test | test system | setting | scale | endpoint | result |
| --- | --- | --- | --- | --- | --- | --- |
| CN[C@@](C)(C[18F])C(=O)O | – | SCID mouse SK-OV-3 xenograft, muscle | 60 min, post injection | – | tissue uptake | 0.7 ± 0.1 %ID/g |
| [123I]c1cncc(OC[C@@H]2CCN2)c1 | SPECT | human, temporal lobe | intravenous bolus, 8.8 mCi | baseline: plasma | tissue/plasma ratio | 4.48 |
| Cc1cc(C(C#N)c2ccc(Cl)cc2)c(Cl)cc1NC(=O)c1cc(I)cc(I)c1O (stereo not drawn) | – | parasitized lambs, plasma | oral, 10 mg/kg, together with: moxidectin 0.2 mg/kg oral | – | AUC(0-inf) | 45300 ± 8450 µg·h/mL |
| CCCCCCCCCCCCCC[N+](C)(C)CCCCCCCCCCCCCC | ultrafiltration | human serum | – | – | unbound fraction in blood | 0.123 |
| CSCC[C@@H]1NC(=O)[C@H](CC(=O)O)NC(=O)CNC(=O)[C@H](CCCNC(=N)N)NC(=O)[C@H](C)NC(=O)[C@H](CCC(=O)O)NC(=O)[C@H](CCCNC(=N)N)NC(=O)[C@@H]2CSSC[C@@H]3NC(=O)[C@H](CO)NC(=O)[C@H]([C@@H](C)O)NC(=O)[C@@H]4CCCN4C(=O)[C@H](C)NC(=O)[C@H](Cc4c[nH]c5ccccc45)NC(=O)[C@H](CC(=O)O)NC(=O)CNC(=O)[C@H](CCCNC(=N)N)NC(=O)CNC(=O)[C@H](CCC(N)=O)NC(=O)[C@@H]4CCCN4C(=O)[C@@H](NC(=O)CNC(=O)C(C)F)CSSC[C@H](NC(=O)CNC(=O)[C@H](C)NC(=O)[C@H](CC(C)C)NC(=O)[C@H](CSSC[C@@H](C(=O)NCC(N)=O)NC(=O)[C@H]([C@@H](C)O)NC(=O)[C@H](CCCNC(=N)N)NC(=O)[C@@H]4CCCN4C1=O)NC(=O)[C@H](CC(=O)O)NC(=O)[C@H](CO)NC(=O)[C@H](CC(=O)O)NC(=O)[C@H](CCC(N)=O)NC(=O)[C@H](CO)NC3=O)C(=O)N[C@@H](C(C)C)C(=O)N2 (stereo partly drawn) [fluorine-18 labelled] | – | nude mice U-87 MG xenograft, liver | intravenous, 1 h | – | tissue uptake | 0.39 ± 0.07 %ID/g |
| C[C@@H](O)[C@H](NC(=O)[C@H](Cc1ccc(O)cc1)NC(=O)[C@@H](NC(=O)[C@H](CCC(N)=O)NC(=O)CN)[C@@H](C)O)C(=O)N[C@@H](CO)C(=O)NCC(=O)O | – | rat blood | concentration not given, 25 °C, together with: protease inhibitors | baseline: no inhibitor | half-life change | no effect |
| CC[C@H](C)CCCCC(=O)N[C@@H](CCN)C(=O)N[C@H](C(=O)N[C@@H](CCN)C(=O)N[C@H]1CCNC(=O)[C@H]([C@@H](C)O)NC(=O)[C@H](CCN)NC(=O)[C@H](CCN)NC(=O)[C@H](CC(C)C)NC(=O)[C@@H](Cc2ccccc2)NC(=O)[C@H](CCN)NC1=O)[C@@H](C)O | – | human, serum | intravenous infusion, 2 mg/kg every 12 h | – | elimination rate constant | 0.226 h⁻¹ |
| CC[C@H](C)[C@H](NC(=O)[C@H](CCC(=O)O)NC(=O)[C@@H](NC(=O)[C@H](CC(=O)O)NC(=O)[C@H](CC(C)C)NC(=O)[C@H](C)NC(=O)[C@H](CCSC)NC(=O)[C@H](CCCCN)NC(=O)[C@@H](NC(=O)[C@H](CC(N)=O)NC(=O)[C@H](CC(C)C)NC(=O)[C@H](CC(C)C)NC(=O)[C@H](CC(=O)O)NC(=O)[C@H](CCC(N)=O)NC(=O)[C@H](Cc1ccc(O)cc1)NC(=O)[C@H](CCC(=O)O)NC(=O)[C@H](CCCNC(=N)N)NC(=O)[C@H](CCC(=O)O)NC(=O)[C@H](CC(C)C)NC(=O)[C@H](CCCNC(=N)N)NC(=O)[C@H](C)NC(=O)[C@H](CC(C)C)NC(=O)[C@H](CCC(=O)O)NC(=O)[C@@H](N)CCC(=O)O)C(C)C)[C@@H](C)CC)C(=O)N[C@@H](C)C(=O)N[C@H](C(=O)N[C@@H](Cc1ccc(O)cc1)C(=O)N[C@@H](CCCNC(=N)N)C(=O)N[C@@H](CCCCN)C(=O)N[C@@H](CC(C)C)C(=O)N[C@@H](CC(C)C)C(=O)N[C@@H](CCC(=O)O)C(=O)N[C@@H](C)C(=O)N[C@@H](CC(C)C)C(=O)N[C@@H](CCC(=O)O)C(=O)N[C@@H](CO)C(=O)N[C@@H](CCCNC(=N)N)C(=O)O)[C@@H](C)O | circular dichroism | Tris buffer | pH 8.0, 20 °C | – | helical content | ~50% |
| CC[C@H](C)[C@@H]1NC(=O)[C@H]([C@@H](C)O)NC(=O)[C@@H](NC(=O)[C@H](Cc2ccccc2)NC(=O)[C@H](C)NC(=O)[C@H](CCCCN)NC(=O)[C@H](CCCCN)NC(=O)[C@H](CC(C)C)NC(=O)[C@@H](NC(=O)[C@H](CCCCN)NC(=O)[C@H](C)NC(=O)[C@H](C)NC(=O)[C@@H](NC(=O)CNC(=O)[C@H](C)NC(=O)[C@@H](NC(=O)[C@H](CCCCN)NC(=O)[C@@H]2CCCN2C(=O)[C@H](Cc2ccccc2)NC(=O)[C@@H](N)Cc2ccccc2)C(C)C)C(C)C)C(C)C)CSSC[C@@H](C(=O)O)NC(=O)[C@H](CCCCN)NC(=O)[C@H](CCCCN)NC(=O)[C@H](CO)NC1=O | haemolysis | horse erythrocytes | 2 h, 37 °C | – | HC50 | 84.9 µM |
| CC(=O)N[C@H](CCCCNC(=O)C(C)F)C(=O)N[C@@H](CS)C(=O)N[C@@H](CS)C(=O)N[C@@H](CCC(=O)O)C(=O)N[C@@H](Cc1c[nH]cn1)C(=O)N[C@H](Cc1ccccc1)C(=O)N[C@@H](CCCNC(=N)N)C(=O)N[C@@H](Cc1c[nH]c2ccccc12)C(=O)N[C@@H](CS)C(=O)N[C@@H](CCCNC(=N)N)C(=O)N1CCC[C@H]1C(=O)N[C@H](C(N)=O)C(C)C (stereo partly drawn) [fluorine-18 labelled] | – | C57BL/6 mice, male, B16-F10 tumour, bone | intravenous, 4 h | – | tissue uptake | 0.17 ± 0.09 %ID/g |
| O[C@H]1CCCN[C@@H]1CCCn1cnc2c(Cl)c(Cl)ccc21 | – | healthy human volunteers, plasma | oral, 50 mg twice daily, day 14, median | – | Tmax at steady state | 3 h |
| N#Cc1ccc(N2N=C3c4ccc(C(=O)N5CCC(O)CC5)nc4CC[C@@H]3[C@@H]2C2CCCC2)cc1Cl | – | human | dose not given, together with: itraconazole | baseline: without itraconazole | AUC(0-inf) increase | 104% |

A few entries again:
| SMILES | test | test system | setting | scale | endpoint | result |
| --- | --- | --- | --- | --- | --- | --- |
| Cc1cc(C(C#N)c2ccc(Cl)cc2)c(Cl)cc1NC(=O)c1cc(I)cc(I)c1O (stereo not drawn) | – | parasitized lambs, plasma | oral, 10 mg/kg, together with: moxidectin 0.2 mg/kg oral | – | AUC(0-inf) | 45300 ± 8450 µg·h/mL |
